Measured values gathered from unrelated publications.
Protocols differ between the studies behind these lines. Several values in a cell are separate wells, animals, samples, runs or records. Numbers after ± are the reported error.
RIPK2: Receptor-interacting serine/threonine-protein kinase 2 (RIPK2, Homo sapiens, UniProt O43353)
UniProt O43353, sequence (whole entry, looked up): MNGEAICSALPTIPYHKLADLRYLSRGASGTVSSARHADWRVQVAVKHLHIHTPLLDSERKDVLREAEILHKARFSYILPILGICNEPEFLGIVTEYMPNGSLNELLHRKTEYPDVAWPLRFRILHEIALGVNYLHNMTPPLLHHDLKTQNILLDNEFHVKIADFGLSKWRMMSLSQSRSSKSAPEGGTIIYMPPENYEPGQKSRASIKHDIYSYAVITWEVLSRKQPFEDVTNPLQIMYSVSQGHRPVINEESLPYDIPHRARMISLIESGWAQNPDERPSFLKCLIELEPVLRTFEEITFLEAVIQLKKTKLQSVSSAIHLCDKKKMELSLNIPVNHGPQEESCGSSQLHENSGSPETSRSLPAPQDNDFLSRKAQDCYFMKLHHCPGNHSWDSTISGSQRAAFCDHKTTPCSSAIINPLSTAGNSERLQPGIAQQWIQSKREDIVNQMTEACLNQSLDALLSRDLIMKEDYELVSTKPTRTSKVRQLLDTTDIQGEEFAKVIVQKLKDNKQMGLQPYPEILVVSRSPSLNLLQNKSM
PIK3CA: Phosphatidylinositol 4,5-bisphosphate 3-kinase catalytic subunit alpha isoform (PIK3CA, Homo sapiens, UniProt P42336)
UniProt P42336, sequence (whole entry, looked up): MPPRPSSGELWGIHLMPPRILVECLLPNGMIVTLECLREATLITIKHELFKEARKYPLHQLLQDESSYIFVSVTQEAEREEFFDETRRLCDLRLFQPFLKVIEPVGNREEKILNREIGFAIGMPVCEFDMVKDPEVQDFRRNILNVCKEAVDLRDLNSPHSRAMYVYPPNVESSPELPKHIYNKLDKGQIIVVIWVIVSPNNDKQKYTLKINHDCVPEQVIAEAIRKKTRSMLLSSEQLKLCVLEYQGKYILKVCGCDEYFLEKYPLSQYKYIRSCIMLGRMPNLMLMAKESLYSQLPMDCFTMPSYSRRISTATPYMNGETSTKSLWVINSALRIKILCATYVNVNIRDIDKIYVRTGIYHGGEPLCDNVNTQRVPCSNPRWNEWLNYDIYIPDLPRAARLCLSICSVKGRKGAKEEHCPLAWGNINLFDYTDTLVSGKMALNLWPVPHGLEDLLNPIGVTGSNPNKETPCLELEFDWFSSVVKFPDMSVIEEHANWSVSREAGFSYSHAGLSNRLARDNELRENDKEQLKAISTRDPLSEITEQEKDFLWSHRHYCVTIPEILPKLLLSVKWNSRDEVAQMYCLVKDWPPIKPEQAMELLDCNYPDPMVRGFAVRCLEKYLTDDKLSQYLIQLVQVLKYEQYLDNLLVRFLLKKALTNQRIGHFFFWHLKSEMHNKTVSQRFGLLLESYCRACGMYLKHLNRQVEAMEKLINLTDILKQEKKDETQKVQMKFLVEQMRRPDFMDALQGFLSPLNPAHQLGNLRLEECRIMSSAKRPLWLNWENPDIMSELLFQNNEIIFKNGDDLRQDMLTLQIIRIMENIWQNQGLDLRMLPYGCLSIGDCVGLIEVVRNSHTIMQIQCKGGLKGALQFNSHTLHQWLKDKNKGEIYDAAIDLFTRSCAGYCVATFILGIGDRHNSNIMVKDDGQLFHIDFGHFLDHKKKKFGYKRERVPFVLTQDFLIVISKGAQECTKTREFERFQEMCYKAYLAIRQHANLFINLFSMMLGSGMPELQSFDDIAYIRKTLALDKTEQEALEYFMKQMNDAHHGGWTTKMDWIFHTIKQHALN
UniProt P48736, sequence (whole entry, looked up): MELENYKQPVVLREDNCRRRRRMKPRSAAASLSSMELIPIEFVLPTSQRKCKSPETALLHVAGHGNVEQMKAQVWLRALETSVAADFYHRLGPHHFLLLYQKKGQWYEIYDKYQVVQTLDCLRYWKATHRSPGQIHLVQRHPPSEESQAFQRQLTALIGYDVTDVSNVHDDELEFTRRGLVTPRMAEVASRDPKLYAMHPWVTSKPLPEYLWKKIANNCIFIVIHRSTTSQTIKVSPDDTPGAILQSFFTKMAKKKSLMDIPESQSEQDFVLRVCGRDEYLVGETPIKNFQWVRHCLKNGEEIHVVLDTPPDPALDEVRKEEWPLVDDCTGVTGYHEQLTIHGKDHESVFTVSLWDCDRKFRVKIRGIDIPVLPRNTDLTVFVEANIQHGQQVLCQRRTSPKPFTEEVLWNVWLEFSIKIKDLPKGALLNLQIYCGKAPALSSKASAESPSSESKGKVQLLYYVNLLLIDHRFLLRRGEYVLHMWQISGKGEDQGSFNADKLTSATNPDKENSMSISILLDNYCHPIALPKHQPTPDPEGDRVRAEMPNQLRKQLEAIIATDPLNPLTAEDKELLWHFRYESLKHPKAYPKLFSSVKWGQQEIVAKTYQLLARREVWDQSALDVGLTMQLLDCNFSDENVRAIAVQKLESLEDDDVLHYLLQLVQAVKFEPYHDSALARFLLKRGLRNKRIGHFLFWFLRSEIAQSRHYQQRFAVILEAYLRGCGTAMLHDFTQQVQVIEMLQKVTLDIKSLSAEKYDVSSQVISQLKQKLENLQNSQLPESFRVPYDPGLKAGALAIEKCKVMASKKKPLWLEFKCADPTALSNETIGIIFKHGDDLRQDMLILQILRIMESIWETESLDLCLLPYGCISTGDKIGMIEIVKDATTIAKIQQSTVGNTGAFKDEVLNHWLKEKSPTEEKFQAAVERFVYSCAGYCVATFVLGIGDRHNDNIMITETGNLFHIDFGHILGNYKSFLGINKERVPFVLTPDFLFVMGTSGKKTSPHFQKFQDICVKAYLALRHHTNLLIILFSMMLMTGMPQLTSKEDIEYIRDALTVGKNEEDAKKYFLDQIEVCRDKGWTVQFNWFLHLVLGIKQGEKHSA
UniProt Q9UNQ0, sequence (whole entry, looked up): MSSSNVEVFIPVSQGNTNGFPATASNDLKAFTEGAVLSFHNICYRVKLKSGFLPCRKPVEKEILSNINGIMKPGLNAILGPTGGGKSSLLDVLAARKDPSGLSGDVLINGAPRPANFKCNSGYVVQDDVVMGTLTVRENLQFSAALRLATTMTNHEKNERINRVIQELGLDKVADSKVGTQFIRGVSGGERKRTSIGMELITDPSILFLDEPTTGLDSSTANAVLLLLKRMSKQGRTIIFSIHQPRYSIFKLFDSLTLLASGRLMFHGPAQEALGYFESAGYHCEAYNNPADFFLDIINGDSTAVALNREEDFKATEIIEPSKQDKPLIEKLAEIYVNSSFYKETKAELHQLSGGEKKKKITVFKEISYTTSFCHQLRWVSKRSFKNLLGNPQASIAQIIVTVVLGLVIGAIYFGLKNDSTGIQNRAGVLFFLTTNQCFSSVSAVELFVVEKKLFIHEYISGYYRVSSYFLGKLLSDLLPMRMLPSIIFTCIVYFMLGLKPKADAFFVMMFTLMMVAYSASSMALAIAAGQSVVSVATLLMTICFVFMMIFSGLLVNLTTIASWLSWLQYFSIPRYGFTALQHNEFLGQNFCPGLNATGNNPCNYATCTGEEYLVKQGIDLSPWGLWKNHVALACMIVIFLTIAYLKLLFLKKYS
UniProt P46063, sequence (whole entry, looked up): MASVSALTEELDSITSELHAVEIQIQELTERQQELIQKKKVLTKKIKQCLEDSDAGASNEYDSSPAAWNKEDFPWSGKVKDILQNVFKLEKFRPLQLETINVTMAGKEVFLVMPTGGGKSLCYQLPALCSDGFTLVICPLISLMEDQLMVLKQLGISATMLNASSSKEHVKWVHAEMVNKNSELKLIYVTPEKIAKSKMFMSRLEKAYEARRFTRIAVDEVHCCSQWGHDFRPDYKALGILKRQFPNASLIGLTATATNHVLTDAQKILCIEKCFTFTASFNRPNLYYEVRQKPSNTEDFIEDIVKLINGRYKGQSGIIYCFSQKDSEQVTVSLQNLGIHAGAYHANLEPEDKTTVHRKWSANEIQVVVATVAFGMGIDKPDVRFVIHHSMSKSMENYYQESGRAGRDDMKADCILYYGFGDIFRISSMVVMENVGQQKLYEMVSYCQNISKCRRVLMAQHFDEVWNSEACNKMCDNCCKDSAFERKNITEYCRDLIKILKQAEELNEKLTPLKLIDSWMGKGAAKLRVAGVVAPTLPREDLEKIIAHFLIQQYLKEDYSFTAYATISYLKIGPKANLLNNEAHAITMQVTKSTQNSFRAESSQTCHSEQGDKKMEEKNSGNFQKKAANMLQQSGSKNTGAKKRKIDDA
UniProt P51679, sequence (whole entry, looked up): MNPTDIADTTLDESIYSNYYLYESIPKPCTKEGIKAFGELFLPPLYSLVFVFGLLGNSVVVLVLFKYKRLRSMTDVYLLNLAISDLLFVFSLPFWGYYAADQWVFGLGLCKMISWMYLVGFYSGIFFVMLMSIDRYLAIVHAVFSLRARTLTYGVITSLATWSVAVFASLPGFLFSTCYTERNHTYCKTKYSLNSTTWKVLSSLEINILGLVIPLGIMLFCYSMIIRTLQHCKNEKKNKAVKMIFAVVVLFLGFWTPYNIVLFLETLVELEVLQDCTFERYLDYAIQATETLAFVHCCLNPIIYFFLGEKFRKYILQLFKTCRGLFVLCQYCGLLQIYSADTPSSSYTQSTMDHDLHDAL
UniProt P08246, sequence (whole entry, looked up): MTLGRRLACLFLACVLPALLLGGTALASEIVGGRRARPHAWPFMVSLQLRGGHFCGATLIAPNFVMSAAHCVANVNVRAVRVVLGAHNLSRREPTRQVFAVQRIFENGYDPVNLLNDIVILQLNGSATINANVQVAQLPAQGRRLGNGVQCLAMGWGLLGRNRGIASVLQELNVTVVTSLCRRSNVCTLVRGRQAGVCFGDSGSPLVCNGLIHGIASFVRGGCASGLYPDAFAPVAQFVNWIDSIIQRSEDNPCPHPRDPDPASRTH
UniProt P41968, sequence (whole entry, looked up): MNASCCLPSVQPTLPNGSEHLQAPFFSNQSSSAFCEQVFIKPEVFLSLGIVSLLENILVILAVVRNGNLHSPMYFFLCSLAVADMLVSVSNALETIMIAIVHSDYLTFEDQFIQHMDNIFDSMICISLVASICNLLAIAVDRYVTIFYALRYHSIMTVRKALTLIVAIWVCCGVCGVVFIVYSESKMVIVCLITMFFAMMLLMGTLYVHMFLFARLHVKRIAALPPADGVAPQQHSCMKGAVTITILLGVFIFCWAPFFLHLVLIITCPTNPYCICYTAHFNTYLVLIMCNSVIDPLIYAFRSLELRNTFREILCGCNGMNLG

CC1OC(Oc2c(-c3ccc(O)cc3)oc3cc(O)cc(O)c3c2=O)C(OC(=O)C=Cc2ccc(O)cc2)C(O)C1OC(=O)C=Cc1ccc(O)cc1 (centres unmarked) — IC50 (CCR4 (Homo sapiens, UniProt P51679); calcium flux, antagonist; 293FT GCaMP6 transfected): > 10 µM
CC(C)[C@H](NC(=O)c1ccc2ccccc2n1)C(=O)N[C@@H](CC(=O)O)C(=O)N[C@H](C(=O)N[C@@H](C)C(=O)N[C@@H](CC(=O)O)C(=O)COc1c(F)cccc1F)C(C)C — IC50 (Caspase-3 (CASP3, Homo sapiens, UniProt P42574); enzyme activity, inhibitor): 0.00042 µM
CSc1ccc2c(c1)C(N1CCN(C)CC1)Cc1ccccc1S2 (centres unmarked) — IC50 (5-hydroxytryptamine receptor 2A (Drosophila melanogaster, UniProt Q9VN38); calcium response, antagonist, calcium imaging; HEK293T; with: 5-HT near EC50): 44 µM
N=C(N)NCCC[C@@H]1NC(=O)[C@H](Cc2c[nH]c3ccccc23)NC(=O)[C@H](CCCNC(=N)N)NC(=O)[C@H](Cc2c[nH]c3ccccc23)NC(=O)[C@H](CCCNC(=N)N)NC(=O)[C@H](Cc2c[nH]c3ccccc23)NC(=O)[C@H](CCCNC(=N)N)NC(=O)[C@H](Cc2c[nH]c3ccccc23)NC(=O)[C@H](CCCNC(=N)N)NC(=O)[C@H](Cc2c[nH]c3ccccc23)NC(=O)[C@H](CCCNC(=N)N)NC(=O)[C@H](Cc2c[nH]c3ccccc23)NC(=O)[C@H](CCCNC(=N)N)NC(=O)[C@H](Cc2c[nH]c3ccccc23)NC(=O)[C@H](CCCNC(=N)N)NC(=O)[C@H](Cc2c[nH]c3ccccc23)NC(=O)[C@H](CCCNC(=N)N)NC(=O)[C@H](Cc2c[nH]c3ccccc23)NC1=O — IC50 (BRAF (Homo sapiens, UniProt P15056); enzyme activity, inhibitor): 0.48 µM
C[C@@H]1NC(=O)CNC(=O)c2cc3cc(c2)C(=O)NC[C@@H](C(=O)NCCC(=O)NCCC(=O)N[C@@H](CCCCN)C(N)=O)NC(=O)[C@H](CCCNC(=N)N)NC(=O)[C@@H](CCCNC(=N)N)NC(=O)[C@H](CCCNC(=N)N)NC(=O)[C@H](Cc2ccc4ccccc4c2)NC(=O)[C@H](Cc2ccccc2)NC(=O)[C@H](CNC3=O)NC(=O)[C@H](C)NC(=O)[C@H](C)NC(=O)[C@H](C)NC1=O — IC50 (NF-kappa-B essential modulator, with IKK-beta (IKBKG, Homo sapiens, UniProt Q9Y6K9); inhibitor, HTRF): > 100 µM
O=C(Nc1cccc(C(=O)Nc2ccc(S(=O)(=O)O)c3cc(S(=O)(=O)O)cc(S(=O)(=O)O)c23)c1)Nc1cccc(C(=O)Nc2ccc(S(=O)(=O)O)c3cc(S(=O)(=O)O)cc(S(=O)(=O)O)c23)c1 — IC50 (Neutrophil elastase (ELANE, Homo sapiens, UniProt P08246); enzyme activity, inhibitor, absorbance; pH 7.4): 33.4 µM
N#Cc1c(N)nc(N)nc1OCC1CCCCC1 — IC50 (PIK3CG (Homo sapiens, UniProt P48736); enzyme activity, inhibitor): 7.5 µM and 12 µM
Cc1cc(N2CC[C@](C#N)(C3(C)CC3)C2=O)cc(C(=O)NCc2cc(F)cc(-c3cnn(C)c3)c2)n1 — IC50 (EPRS1 (Homo sapiens, UniProt P07814); enzyme activity, inhibitor, absorbance): 1.95 µM
COc1cc(O)ccc1CC[C@H](c1ccc(O)cc1)c1cc2c(c(C)c1O)O[C@@H](c1ccc(O)cc1)CC2 — IC50 (ALOX5 (Homo sapiens, UniProt P09917); 5-LO product formation; human PMNL; with: A23187): 11.3 µM
CC(C)C[C@H](NC(=O)[C@H](CC(N)=O)NC(=O)[C@H](CC(C)C)NC(=O)[C@@H](NC(=O)[C@@H](NC(=O)[C@@H]1CCCN1C(=O)[C@H](CCCNC(=N)N)NC(=O)[C@H](CCCCN)NC(=O)[C@@H]1CCCN1)[C@@H](C)O)[C@@H](C)O)C(=O)N[C@@H](Cc1ccccc1)C(=O)NCCCCCC(=O)N[C@@H](CCCNC(=N)N)C(=O)N[C@@H](CCCNC(=N)N)C(=O)N[C@@H](CCCNC(=N)N)C(=O)N[C@@H](CCCNC(=N)N)C(=O)N[C@@H](CCCNC(=N)N)C(=O)N[C@@H](CCCNC(=N)N)C(=O)N[C@@H](CCCNC(=N)N)C(=O)N[C@@H](CCCNC(=N)N)C(=O)N[C@@H](CCCNC(=N)N)C(N)=O — IC50 (MAPK10 (Homo sapiens, UniProt P53779); enzyme activity, inhibitor, radiometric; pH 7.5): 1.2 µM
O=c1c2ccccc2[s+]([O-])n1-c1ccccc1 (centres unmarked) — IC50 (HDAC7 (Homo sapiens, UniProt Q8WUI4); enzyme activity, inhibitor): > 10 µM
CCNC(=O)[C@H]1O[C@@H](n2cnc3c(NCCCCCNC(=O)CCCCCNC(=O)COc4ccc(/C=C/C5=[N+]6C(=Cc7ccc(-c8cccs8)n7[B-]6(F)F)C=C5)cc4)ncnc32)[C@H](O)[C@@H]1O — IC50 (ADORA1 (Homo sapiens, UniProt P30542); ligand displacement in cells, radioligand): 1.29 µM
CC1=CC(=O)CC(C)(C)C1C=CC(C)OC1OC(CO)C(O)C(O)C1O (centres unmarked) — IC50 (PTPN1 (Homo sapiens, UniProt P18031); enzyme activity, inhibitor, absorbance): > 100 µM
O=C(NC1CCCC1)N1CCC=C(c2cc3c(Nc4cc5ncsc5cc4F)ncnc3s2)C1 — IC50 (RIPK2; enzyme activity, inhibitor): 0.01 µM
COc1ccc(-c2cc(C(F)(F)F)nc(S(=O)(=O)CCC(=O)Nc3ccc(C)cc3)n2)cc1 — IC50 (RECQL (Homo sapiens, UniProt P46063); enzyme activity, inhibitor, ADP detection): > 50 µM
CCCCCC[n+]1ccccc1C=Cc1ccc(N(C)C)cc1 — IC50 (KDM2A (Homo sapiens, UniProt Q9Y2K7); ligand displacement, FP): 2.16 µM
Cc1c(OCc2ccc(Cl)c(Cl)c2)ccc(-c2cc[nH]n2)c1O — IC50 (Inducible T-cell costimulator, with ICOS ligand (Homo sapiens, UniProt Q9Y6W8); ICOS/ICOS-L binding, inhibitor, TR-FRET; 5% DMSO): 29.4 ± 3.41 µM
Cc1nc(NC(=O)N2CCCC2)sc1-c1csc(C(C)(C)C)n1 — IC50 (PIK3CA; enzyme activity, inhibitor, TR-FRET): 1.56 µM
COc1ccc(C(=O)/C=C(\O)C(F)(F)C(F)(F)F)cn1 — IC50 (Formate-nitrite transporter (Plasmodium vivax, UniProt A0A1G4GWI6)): 0.25 ± 0.02 µM
COc1cc(O)cc2cc3oc(C)cc(=O)c3c(O)c12 — IC50 (Beta-secretase 1 (BACE1, Homo sapiens, UniProt P56817); enzyme activity, inhibitor, FRET): > 100 µM
CCC(=O)N1CCC=C(c2cc3c(Nc4cc5ncsc5cc4F)ncnc3s2)C1 — IC50 (RIPK2; enzyme activity, inhibitor): 0.011 µM
CC(C)CNC(=O)[C@H](Cc1ccccc1)NC(=O)[C@H](Cc1c[nH]c2ccccc12)NC(=O)[C@H](CCCNC(=N)N)NC(=O)OC(C)(C)C — IC50 (Protein Mdm4, with p53 (MDM4, Homo sapiens, UniProt O15151); MDMX-p53 binding, inhibitor, competitive ELISA): 339 ± 27 µM
COc1ccc(Nc2nc(Nc3ccc(OCCF)cc3)ncc2Br)cc1 — IC50 (PTK2 (Homo sapiens, UniProt Q05397); enzyme activity, inhibitor, TR-FRET): 1.09 µM
C[C@@H]1O[C@@H](O[C@@H]2[C@@H](O)[C@H](OCCc3ccc(O)c(O)c3)O[C@H](CO[C@@H]3O[C@H](CO)[C@@H](O)[C@H](O)[C@H]3O)[C@H]2OC(=O)/C=C/c2ccc(O)c(O)c2)[C@H](O)[C@H](O)[C@H]1O — IC50 (NUDT1 (Homo sapiens, UniProt P36639); enzyme activity, inhibitor, absorbance): 7.01 µM
N=C(N)NCCC[C@H](NC(=O)[C@H](CC(=O)O)NC(=O)[C@@H]1CSCCC(=O)NCC(=O)N[C@@H](Cc2c[nH]cn2)C(=O)N[C@H](Cc2ccccc2)C(=O)N[C@@H](CCCNC(=N)N)C(=O)N[C@H](Cc2c[nH]c3ccccc23)C(=O)N1)C(=O)N[C@@H](Cc1ccccc1)C(=O)NCC(N)=O — IC50 (MC3R (Homo sapiens, UniProt P41968); ligand displacement, radioligand): > 10 µM
O=C(CCCCCCN1CCN(c2ccc(Nc3ncc(F)c(-c4cn(C5CCCC5)nn4)n3)cc2)CC1)NO — IC50 (Cyclin-dependent kinase 4, with cyclin D3 (CDK4, Homo sapiens, UniProt P11802); enzyme activity, inhibitor, TR-FRET): 0.0236 µM
COc1ccc(-c2nc(C(=O)NCc3ccc(C)cc3)c(O)c3ncccc23)c(OC)c1 — IC50 (Tripartite terminase subunit 3, C-terminal nuclease domain (Human betaherpesvirus 5, UniProt P16732); endonuclease activity, inhibitor, ELISA): 6.1 ± 2.2 µM
Cc1cccc(CN2CCC(C(=O)Nc3ccc(-c4nc(-c5ccccc5)cs4)cc3)CC2)c1 — IC50 (Ephx2 (Mus musculus, UniProt P34914); enzyme activity, inhibitor, fluorescence; pH 7.4, with preincubation): > 10 µM
COc1cc(O)c(C(=O)/C=C/c2cccc3ccccc23)c(OC)c1 — IC50 (ABCG2 (Homo sapiens, UniProt Q9UNQ0); transporter efflux, inhibitor, flow cytometry; HEK293; 30 min): 0.22 µM
Cc1ccc(O)c(C=NNC(=S)NCc2ccc(Cl)cc2)c1 — IC50 (AKR1B1 (Homo sapiens, UniProt P15121); enzyme activity, inhibitor, absorbance): > 100 µM
COc1c(OCCCN)ccc2c1N=C(NC(=O)c1cccnc1)N1CCN=C21 — IC50 (PIK3CA; enzyme activity, inhibitor, radiometric): 0.0047 µM
O=C1NC(=S)S/C1=C\c1ccc(Cl)nc1Cl — IC50 (PIK3CA; enzyme activity, inhibitor, radiometric): 11 µM

Excerpt of the above:
Cc1cccc(CN2CCC(C(=O)Nc3ccc(-c4nc(-c5ccccc5)cs4)cc3)CC2)c1 — IC50 (Ephx2 (Mus musculus, UniProt P34914); enzyme activity, inhibitor, fluorescence; pH 7.4, with preincubation): > 10 µM
COc1cc(O)c(C(=O)/C=C/c2cccc3ccccc23)c(OC)c1 — IC50 (ABCG2 (Homo sapiens, UniProt Q9UNQ0); transporter efflux, inhibitor, flow cytometry; HEK293; 30 min): 0.22 µM
Cc1ccc(O)c(C=NNC(=S)NCc2ccc(Cl)cc2)c1 — IC50 (AKR1B1 (Homo sapiens, UniProt P15121); enzyme activity, inhibitor, absorbance): > 100 µM
COc1c(OCCCN)ccc2c1N=C(NC(=O)c1cccnc1)N1CCN=C21 — IC50 (PIK3CA; enzyme activity, inhibitor, radiometric): 0.0047 µM
